# Experimental data pooled from the literature.
# Parts stem from different laboratories: compare values within a part only. Positions count from the first letter of the parent shown.

# Series 1
# Target: Homeobox protein Hox-C11, full length (HOXC11, Homo sapiens, UniProt O43248, residues 1-304)
# UniProt O43248, sequence (whole entry, looked up): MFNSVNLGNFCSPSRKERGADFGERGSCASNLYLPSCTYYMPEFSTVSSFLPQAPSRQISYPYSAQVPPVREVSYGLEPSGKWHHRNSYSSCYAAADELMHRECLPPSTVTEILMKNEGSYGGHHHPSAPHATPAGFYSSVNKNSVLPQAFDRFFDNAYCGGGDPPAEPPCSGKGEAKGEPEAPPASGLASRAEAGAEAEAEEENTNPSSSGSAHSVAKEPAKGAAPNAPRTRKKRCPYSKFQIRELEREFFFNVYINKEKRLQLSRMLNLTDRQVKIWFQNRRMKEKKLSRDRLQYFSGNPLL
# Technique: protein-binding microarray
# Molecule type: hairpin DNA
# Medium: in vitro
# Concentration: not given
# Setting: whole hairpin DNA, median over replicate spots
# Reference: not given
# Reading: higher = stronger binding
# Constant ends, left off below: GAGGCCA … TGGCCTCACACTC
Strand,median fluorescence [a.u.]
CGTCGTAAAAGCCTCCTGGCTTTTACGACG (5mC at 8),9180
GGTCGGTAAAGCCTCCTGGCTTTACCGACC (5mC at 32),10000
GGTCGTAAAAGCCTCCTGGCTTTTACGACC,10600
GGTCGTAATAGCCTCCTGGCTATTACGACC,10200
GGCGGTTAAAGCCTCCTGGCTTTAACCGCC (5mC at 10),9800
GGTCGTTAACGCCTCCTGGCGTTAACGACC,10800
GGTCGTTTAAGCCTCCTGGCTTAAACGACC,9830
GGGCGTTAAAGCCTCCTGGCTTTAACGCCC (5mC at 35),9950
GGTCCGAAAAGCCTCCTGGCTTTTCGGACC (5mC at 12 32),9840
GGCCGTTAAAGCCTCCTGGCTTTAACGGCC,9220
GCTCGTTAAAGCCTCCTGGCTTTAACGAGC (5mC at 9),8810
GGTCCGAAAAGCCTCCTGGCTTTTCGGACC,9140
GGTCGTTAACGCCTCCTGGCGTTAACGACC (5mC at 17),10600
GGTCGTTCGAGCCTCCTGGCTCGAACGACC (5mC at 29),11300
GGTCGTAACAGCCTCCTGGCTGTTACGACC (5mC at 16),10900

# Series 2
# Target: Histone acetyltransferase KAT6A, winged helix 2, GST fusion (KAT6A, Homo sapiens, UniProt Q92794, residues 85-181)
# Technique: protein binding microarray
# Molecule type: double-stranded DNA, one strand shown
# Medium: in vitro
# Concentration: not given
# Setting: 8-mer, flanks averaged, mean of 2 arrays, mostly near background
# Reference: not given
# Reading: higher = stronger binding
# Target sequence (chain): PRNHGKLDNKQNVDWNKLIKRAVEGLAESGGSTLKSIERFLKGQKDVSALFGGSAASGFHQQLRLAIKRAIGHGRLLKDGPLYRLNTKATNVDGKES
Strand,E-score
CGCGGACG,0.206
ATTCGTGG,0.0155
ACGCAAAA,0.0438
CCGCTTAC,0.102
TCCGAGAA,0.0985
CCCTTGGA,0.119
ATATTAAT,0.192
TGAAGTAA,-0.113
GCCGCAAA,0.167
GCTCCATA,-0.0435
CAAACCAG,0.0629
GGAAGACC,0.00897
CTGTCTTC,0.0683
CCTACTAC,-0.127
CTTACGGA,-0.178
CCCAGATA,-0.248

# Series 3
# Target: PABPC1L2, full length, GST fusion (mouse, UniProt A0ABA7IW68)
# Technique: RNAcompete
# Molecule type: RNA
# Medium: in vitro
# Concentration: 20 nM
# Setting: 7-mer, probes averaged, single round
# Reference: mean of 7-mers
# Reading: higher = stronger binding
# Construct (chain): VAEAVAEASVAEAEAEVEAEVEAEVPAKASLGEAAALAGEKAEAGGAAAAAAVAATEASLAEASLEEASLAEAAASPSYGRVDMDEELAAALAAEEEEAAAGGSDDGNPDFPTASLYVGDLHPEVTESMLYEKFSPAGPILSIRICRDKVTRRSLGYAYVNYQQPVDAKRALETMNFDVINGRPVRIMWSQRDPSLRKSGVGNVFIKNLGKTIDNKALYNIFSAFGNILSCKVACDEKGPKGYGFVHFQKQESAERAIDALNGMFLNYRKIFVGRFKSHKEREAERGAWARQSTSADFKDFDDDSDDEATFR
Strand,7-mer Z-score
GGGUCCC,-0.222
CGGUUAU,-0.204
CUACCAA,-0.0573
GCCUUCA,-0.365
AUAUUGC,-0.151
CAACGUC,-0.224
CGCGUGC,-0.382
GAUGUGC,0.0841
UGCCUGU,-0.266
GAGAGUC,-0.311
CGUAGUC,-0.398
GUGCUUC,-0.267
GACCGUC,-0.313
ACUCUUC,-0.472
UCAUUAU,-0.0808
CGUUAGU,-0.409
AGGUGUG,-0.0428
CCGCUAG,-0.137
UGUAACG,-0.229

# Series 4
# Target: ABI1, truncated, D143A, DHFR fusion (Arabidopsis thaliana)
# Technique: DHFR PCA, deep sequencing
# Medium: yeast
# Setting: methotrexate growth selection, single substitutions
# Added: (+)-ABA 17 µM
# Reference: wild-type fitted maximum
# Reading: higher = stronger binding
# Parent: PYL1, truncated, DHFR fusion (Arabidopsis thaliana); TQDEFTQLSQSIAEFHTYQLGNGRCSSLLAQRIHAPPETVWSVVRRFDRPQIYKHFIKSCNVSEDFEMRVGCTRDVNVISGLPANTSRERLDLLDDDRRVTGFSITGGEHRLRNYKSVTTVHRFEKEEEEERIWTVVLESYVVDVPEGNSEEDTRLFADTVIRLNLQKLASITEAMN
Substitution,relative binding score
T17C,62.7%
N61T,91.4%
N61M,86.7%
S87W,17.3%
L164T,96.7%
W134I,95.5%
T86Y,77%
V136M,103%
R49Q,94.2%
V62P,16.8%
R69P,-9.44%

# Series 5
# Target: CCNB3, cyclin fold, Cln2 fusion (human)
# Technique: yeast growth competition, sequencing
# Medium: yeast
# Setting: weak parent motif
# Reference: not given
# Reading: higher = stronger binding
# Parent: WEE1 docking peptide (human); HKTFRKLRLFDTP
Substitution,normalised enrichment score
HKTFRKLMLFDTP [R8M],0.328
HKTIRKLRLFDTP [F4I],0.231
HKMFRKLRLFDTP [T3M],0.169
HKTFLKLRLFDTP [R5L],-0.331
PKTFRKLRLFDTP [H1P],0.0775
HKTSRKLRLFDTP [F4S],-0.0982
HKTFGKLRLFDTP [R5G],-0.248
HSTFRKLRLFDTP [K2S],0.0441
HKTFRKLRLFHTP [D11H],-0.415
HKTFRKLRWFDTP [L9W],0.197
HKTFRALRLFDTP [K6A],0.382
HKTFIKLRLFDTP [R5I],0.119
HKTFRKLRLFDSP [T12S],0.169
HKGFRKLRLFDTP [T3G],0.594
HKTFWKLRLFDTP [R5W],0.201
HGTFRKLRLFDTP [K2G],0.195

# Series 6
# Target: Fragile X messenger ribonucleoprotein 1, C-terminal low-complexity region (Fmr1, Mus musculus, UniProt P35922)
# Technique: RNA Bind-n-Seq
# Molecule type: RNA
# Medium: in vitro
# Concentration: 200 nM
# Setting: whole 134-nt RNA, ends assumed
# Added: 150 mM KCl
# Reference: input library
# Reading: higher = stronger binding
Strand,log2 enrichment
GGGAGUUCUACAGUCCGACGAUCCUCAAGUCCUGUGCUACACAUCGUAUGUACCGAAUCGGGAAAGGGAGGGAGGGAAAGUAUUAUGUUACGCCGUUCGGAUCUGCACUUCCAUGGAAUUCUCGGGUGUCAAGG,1.22
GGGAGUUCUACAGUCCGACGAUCCUCAAGUCCUGUGCUACACAUCGUAUGUACCGAAUCGGGUGGGAGGGAAAGGGAAAGUAUUAUGUUACGCCGUUCGGAUCUGCACUUCCAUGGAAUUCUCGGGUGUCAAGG,1.18
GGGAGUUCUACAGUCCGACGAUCCCUCAAGUCCUGUGCUACACAUCGUAUGUACCGAAUCGGGGAGGAGGGGAGGGAAAGUAUUAUGUUACGCCGUUCGGAUCUGCACUUCCAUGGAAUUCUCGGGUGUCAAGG,1.27
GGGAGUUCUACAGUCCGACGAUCUAACUUUAGAGGAGGAUCUGAUGGAUAUGGCAGUGGACGUGGAUUUGGGAAUGGCUAUAAUGGGUAUGGAGGAGGACCUGGAGGUGGCAAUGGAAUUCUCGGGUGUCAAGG,0.244
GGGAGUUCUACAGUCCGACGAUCACCAUGCAGGUGGGCAUCUUUGGGAAGUGGGGCAAAAGGGGGAUAGGGAGGGGGGUAACACUUUGGGAACAGGUGGUCCCAGGUCGUUUCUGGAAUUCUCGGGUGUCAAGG,0.634
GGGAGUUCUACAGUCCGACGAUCUGUGCUACACAUCGUAUGUACCGAAUCGGGGAAAAAAAGGGGAAAAAGGGGUUUUUUUGGGGAAAGUAUUAUGUUACGCCGUUCGGAUCUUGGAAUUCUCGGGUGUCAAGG,0.167
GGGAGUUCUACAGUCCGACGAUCUUACAUUACCUGGUGAAAUAGACAUUGACAGUAUCUCCUAUGAAGAGCUUUCACCACCUGAUGAAGAGCCUGCCAAGAAUAAAAAGGAAAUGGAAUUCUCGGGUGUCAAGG,-1.24
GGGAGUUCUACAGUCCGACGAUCUCCUGUGCUACACAUCGUAUGUACCGAAUCGGGGUUUUUGGGGAAAGGGGAAAAAGGGGAAAGUAUUAUGUUACGCCGUUCGGAUCUGCAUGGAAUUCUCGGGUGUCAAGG,0.537
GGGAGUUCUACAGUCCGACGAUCAGUCCUGUGCUACACAUCGUAUGUACCGAAUCAAACCCAAACCCCCAAAUUUUUAAAAAAGUAUUAUGUUACGCCGUUCGGAUCUGCACUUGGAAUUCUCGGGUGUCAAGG,-0.18
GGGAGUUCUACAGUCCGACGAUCCAAGUCCUGUGCUACACAUCGUAUGUACCGAAUCGGGCCCGGGCCCGGGCCCGGGGAAAGUAUUAUGUUACGCCGUUCGGAUCUGCACUUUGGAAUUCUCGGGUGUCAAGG,-1.17
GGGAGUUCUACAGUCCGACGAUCAGUCCUGUGCUACACAUCGUAUGUACCGAAUCGGGGUUUUUUUGGGGAGGGGUGGGGAAAGUAUUAUGUUACGCCGUUCGGAUCUGCACUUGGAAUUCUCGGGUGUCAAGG,0.763
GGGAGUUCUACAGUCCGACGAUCCAAGUCCUGUGCUACACAUCGUAUGUACCGAAUCGGGUGGGUUUUUGGGAAAGGGAAAGUAUUAUGUUACGCCGUUCGGAUCUGCACUUCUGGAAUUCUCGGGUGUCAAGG,0.526

# Series 7
# Target: Sal-like protein 4, full length isoform A (SALL4, Homo sapiens, UniProt Q9UJQ4, residues 1-1053)
# UniProt Q9UJQ4, sequence (whole entry, looked up): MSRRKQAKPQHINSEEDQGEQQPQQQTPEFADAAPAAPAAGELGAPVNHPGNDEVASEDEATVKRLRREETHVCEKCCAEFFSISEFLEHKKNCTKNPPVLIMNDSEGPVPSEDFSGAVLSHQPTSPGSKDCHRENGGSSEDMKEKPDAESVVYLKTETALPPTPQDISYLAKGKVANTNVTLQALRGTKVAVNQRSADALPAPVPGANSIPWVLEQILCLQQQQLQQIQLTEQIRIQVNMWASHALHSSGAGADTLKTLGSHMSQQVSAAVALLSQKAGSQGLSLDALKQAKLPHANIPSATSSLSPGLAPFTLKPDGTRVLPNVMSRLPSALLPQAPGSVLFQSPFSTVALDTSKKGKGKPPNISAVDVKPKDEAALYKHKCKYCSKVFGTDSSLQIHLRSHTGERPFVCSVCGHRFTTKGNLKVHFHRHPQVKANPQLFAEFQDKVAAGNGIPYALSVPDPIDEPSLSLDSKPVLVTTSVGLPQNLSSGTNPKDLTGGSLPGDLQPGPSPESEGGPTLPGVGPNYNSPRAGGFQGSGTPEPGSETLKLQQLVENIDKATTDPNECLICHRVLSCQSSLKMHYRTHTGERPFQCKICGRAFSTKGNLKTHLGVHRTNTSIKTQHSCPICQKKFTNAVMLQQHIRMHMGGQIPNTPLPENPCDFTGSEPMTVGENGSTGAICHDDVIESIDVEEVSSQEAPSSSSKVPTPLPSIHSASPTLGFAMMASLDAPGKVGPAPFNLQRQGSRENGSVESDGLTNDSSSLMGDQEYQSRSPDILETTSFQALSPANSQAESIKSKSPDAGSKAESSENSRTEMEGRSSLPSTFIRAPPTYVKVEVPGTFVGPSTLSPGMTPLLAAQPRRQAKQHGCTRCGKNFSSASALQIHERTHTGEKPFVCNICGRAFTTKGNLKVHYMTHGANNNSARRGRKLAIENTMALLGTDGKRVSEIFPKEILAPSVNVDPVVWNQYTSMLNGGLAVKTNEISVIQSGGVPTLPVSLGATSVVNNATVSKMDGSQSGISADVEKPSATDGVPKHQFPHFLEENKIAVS
# Technique: universal PBM
# Molecule type: double-stranded DNA, one strand shown
# Medium: in vitro
# Concentration: 600 nM
# Setting: 8-mer, flanks averaged, mean of replicates
# Reading: higher = stronger binding
Strand,E-score
AGGGTTTA,0.117
ACAAGCGA,-0.00761
TGACCCCA,-0.317
CTTCCCAA,-0.0734
CTGTCCGA,-0.126
GAGTCGTA,0.0641
CGCCGGCC,-0.401
GGCTCATA,0.111
ACTACGTA,0.106
GAATGTGA,0.11
GTCTAAAC,0.0754
AATCTACC,0.11
GGGGCTTA,-0.238
AGGTTTAC,-0.0788
TCACAGAA,0.133
CTAAAATC,0.0611

# Mixed results
Substance,partner,assay,system,conditions,endpoint,value
"HSPA8 (Homo sapiens, UniProt P11142)","SLC25A38 (Homo sapiens, UniProt Q96DW6)",cross-linking MS,cells,added: BSPNO,cross-linked residues,K112 to M1

# For quick reference, copied from above (mixed results):
Substance,partner,assay,system,conditions,endpoint,value
"HSPA8 (Homo sapiens, UniProt P11142)","SLC25A38 (Homo sapiens, UniProt Q96DW6)",cross-linking MS,cells,added: BSPNO,cross-linked residues,K112 to M1
